Measured values of several laboratories.
Parts stem from different laboratories: compare values within a part only. Positions count from the first letter of the parent shown.

Study 1
Target: Centromere-binding protein 1, full length, His-tagged (CBF1, Saccharomyces cerevisiae, UniProt P17106, residues 1-351)
UniProt P17106, sequence (whole entry, looked up): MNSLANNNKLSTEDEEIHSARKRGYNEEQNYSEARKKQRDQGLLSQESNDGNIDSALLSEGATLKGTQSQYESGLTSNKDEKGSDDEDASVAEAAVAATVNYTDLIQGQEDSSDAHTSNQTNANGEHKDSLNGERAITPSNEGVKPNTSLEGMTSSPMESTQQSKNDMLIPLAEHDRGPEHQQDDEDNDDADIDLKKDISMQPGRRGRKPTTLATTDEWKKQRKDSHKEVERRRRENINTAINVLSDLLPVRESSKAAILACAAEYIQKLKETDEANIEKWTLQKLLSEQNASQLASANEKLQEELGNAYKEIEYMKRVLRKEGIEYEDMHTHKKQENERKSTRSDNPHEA
Method: competition protein-binding microarray
Molecule type: double-stranded DNA, one strand shown
Sample: in vitro
Tested at: 2 µM
Setting: whole 60-bp probe, lowest competitor level
Together with: Pho4 competitor, 0.05 µM
Direction: higher = stronger binding
Endpoint: fluorescence intensity
All sequences stand within: … GTCTTGATTCGCTTGACGCTGCTG
CGTCCTAGTGATTGGCACGTGTTTTCCATGAGGAAG: 2030 a.u.
TGGAACAAGGTGTTCCAGGTGACAAAGTTGGTTTCA: 79.6 a.u.
TATTAGATAACTTAGCACGTGAAAAAGAAACGTTTT: 2150 a.u.
AAGCCACTTTTCCATCACGTTTCTTAGCGTTATTCC: 385 a.u.
ACTTTATACCACCACCACATGCCATACTCACCCTCA: 80.3 a.u.
CATACCCAACCTTGTCGGGTGGGTGAAGATATTTGT: 76.8 a.u.
AAATTACTAAGTTTTCACGTGACGTACCCCGTATGA: 5500 a.u.
AAATTACTAAGTTGTCACGGAACTTACCCCGTATGA: 83.1 a.u.
TGCAGAACGCAAAATCGCGTGCGGAAGGAACGAGGA: 78.8 a.u.
CTTTCCCGATCTTGGGCTGTGGGTGTAGCACATTTG: 71.4 a.u.

Study 2
Target: CCNB1, cyclin fold, Cln2 fusion (human)
Method: yeast growth competition, sequencing
Sample: yeast
Setting: weak parent motif
Reference: not given
Direction: higher = stronger binding
Endpoint: normalised enrichment score
Starting sequence: CDKN1B docking peptide (human); PSACRNLFGPVDH
PSACRNLFGPVMH [D12M]: 0.358
PSACRNLFGAVDH [P10A]: 0.167
PSACINLFGPVDH [R5I]: 0.209
PSAVRNLFGPVDH [C4V]: 0.63
PSACRNLFGPDDH [V11D]: 0.531
PSACRNLFGCVDH [P10C]: 0.318
PSACRNLFHPVDH [G9H]: 1.11
PSACVNLFGPVDH [R5V]: 0.518
PSACRNLFPPVDH [G9P]: 0.2
PYACRNLFGPVDH [S2Y]: -0.231
LSACRNLFGPVDH [P1L]: 0.593
PSACRNIFGPVDH [L7I]: 0.736
PSACRNLFGPGDH [V11G]: -0.0729
PSACRNLFGPVDY [H13Y]: 0.441

Study 3
Target: Sal-like protein 4, full length isoform A (SALL4, Homo sapiens, UniProt Q9UJQ4, residues 1-1053)
UniProt Q9UJQ4, sequence (whole entry, looked up): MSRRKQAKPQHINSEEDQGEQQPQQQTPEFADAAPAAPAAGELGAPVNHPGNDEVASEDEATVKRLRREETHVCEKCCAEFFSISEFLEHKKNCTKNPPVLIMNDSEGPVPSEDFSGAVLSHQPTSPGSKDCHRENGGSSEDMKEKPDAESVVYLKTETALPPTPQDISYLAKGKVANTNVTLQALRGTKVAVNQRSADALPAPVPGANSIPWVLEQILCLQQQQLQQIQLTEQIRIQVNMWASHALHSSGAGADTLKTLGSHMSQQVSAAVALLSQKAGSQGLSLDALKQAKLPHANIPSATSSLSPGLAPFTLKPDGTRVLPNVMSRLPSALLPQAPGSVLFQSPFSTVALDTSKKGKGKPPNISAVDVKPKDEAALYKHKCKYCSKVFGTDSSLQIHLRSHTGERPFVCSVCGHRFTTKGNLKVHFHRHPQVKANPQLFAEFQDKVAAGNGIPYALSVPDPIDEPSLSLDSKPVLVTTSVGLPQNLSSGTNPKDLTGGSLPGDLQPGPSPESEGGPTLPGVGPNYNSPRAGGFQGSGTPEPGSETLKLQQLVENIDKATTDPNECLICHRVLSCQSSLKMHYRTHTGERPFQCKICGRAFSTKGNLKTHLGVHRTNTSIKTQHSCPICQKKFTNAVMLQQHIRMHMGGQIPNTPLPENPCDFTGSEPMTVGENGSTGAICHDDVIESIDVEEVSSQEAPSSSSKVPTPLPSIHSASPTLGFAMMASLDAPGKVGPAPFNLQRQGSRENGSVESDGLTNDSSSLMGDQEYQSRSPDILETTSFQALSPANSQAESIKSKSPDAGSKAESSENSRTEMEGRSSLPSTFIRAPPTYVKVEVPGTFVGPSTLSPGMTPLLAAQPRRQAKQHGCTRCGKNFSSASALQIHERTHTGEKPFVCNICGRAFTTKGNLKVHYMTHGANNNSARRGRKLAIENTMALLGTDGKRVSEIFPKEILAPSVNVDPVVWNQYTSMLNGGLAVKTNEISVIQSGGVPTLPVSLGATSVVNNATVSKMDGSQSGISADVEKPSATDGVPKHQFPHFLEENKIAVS
Method: universal PBM
Molecule type: double-stranded DNA, one strand shown
Sample: in vitro
Tested at: 600 nM
Setting: 8-mer, flanks averaged, mean of replicates
Direction: higher = stronger binding
Endpoint: E-score
ACCAGTTG: -0.0588
CCGCATAG: 0.0215
CATTCCGG: -0.243
CTTTCCCC: -0.0909
AAGAGGAT: 0.0508
GGAAGATA: 0.182
ATAGCCAT: 0.158
CGCCTTGA: -0.264
GGACAAAA: 0.0581
TAACCTAA: 0.238
CGTGCGTA: -0.11
ATCACTAC: 0.0827
CAGAAATA: 0.328

Other studies, line by line
PhoQ, residues 284 288 289 292 302 303 QWGLFV — fold induction (PhoP, residues 12 14 15 18 19 AQCLL (Escherichia coli, UniProt P23836); Sort-seq, refers to: YFP reporter; E. coli; PhoQ-PhoP variant library, together with: 10 µM Mg2+; reference: high Mg2+ state, higher = stronger signaling): 2.53
